# Measurements gathered from unrelated publications.
# Parts stem from different laboratories: compare values within a part only. Substitutions count along the parent as printed.

# Block 1 — target: CCNB3, cyclin fold, Cln2 fusion (human); method: yeast growth competition, sequencing; sample: yeast; notes: weak parent motif; reference: not given; direction: higher = stronger binding
# Starting sequence: PKMYT1 docking peptide (human); SFEPRNLLSLFED; partner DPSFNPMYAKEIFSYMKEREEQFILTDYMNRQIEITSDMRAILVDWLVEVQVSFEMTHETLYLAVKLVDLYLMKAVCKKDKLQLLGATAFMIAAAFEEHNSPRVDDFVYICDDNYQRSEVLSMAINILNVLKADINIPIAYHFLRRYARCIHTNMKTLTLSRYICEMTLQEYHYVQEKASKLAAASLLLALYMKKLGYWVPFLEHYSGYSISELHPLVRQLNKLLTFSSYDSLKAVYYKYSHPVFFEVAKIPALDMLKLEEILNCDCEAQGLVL
Change,normalised enrichment score
SFEPSNLLSLFED [R5S],0.466
SFEPRNLLQLFED [S9Q],0.62
SFEPRNLLSLCED [F11C],-0.119
SFEPRNLLSLFEY [D13Y],0.443
SFEDRNLLSLFED [P4D],0.446
SFEPRNLLFLFED [S9F],0.62
SFPPRNLLSLFED [E3P],0.915
SAEPRNLLSLFED [F2A],0.521
SFEPRNLLSLFTD [E12T],0.144
SFGPRNLLSLFED [E3G],0.14
SFVPRNLLSLFED [E3V],0.514

# Block 2 — method: protein-binding microarray; form: double-stranded DNA, one strand shown; sample: in vitro; tested at: not given; direction: higher = stronger binding
# Target: Hepatocyte nuclear factor 3-beta, forkhead domain (FOXA2, Homo sapiens, UniProt Q9Y261, residues 142-269)
# Notes: k-mer, scored over probes, only values ≥0.25
# Residues (chain): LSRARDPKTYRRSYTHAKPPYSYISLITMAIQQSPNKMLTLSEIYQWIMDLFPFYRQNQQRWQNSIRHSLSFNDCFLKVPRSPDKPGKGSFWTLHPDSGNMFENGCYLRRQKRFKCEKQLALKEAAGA
Oligonucleotide,E-score
ACTACATG,0.356
AGACAATA,0.285
ATTGTAAG,0.25
GATATGAA,0.269
AAGTTATG,0.279
AAATATTG,0.32
ATATTACC,0.349
TATAGTAA,0.349
CAAATATC,0.314
AGGTGTAT,0.26
ACAACATC,0.282
ACCATATA,0.433
ATGATTAG,0.27
ACTTTACC,0.257
CGACTATA,0.312
ACAAATGG,0.259
GGTAAACA,0.401

# Block 3 — method: RNA Bind-n-Seq; form: RNA; sample: in vitro; tested at: 365 nM; reference: no-protein control; direction: higher = stronger binding
# Target: RNA binding protein fox-1 homolog 2, RRM domain, GST-SBP tag (RBFOX2, Homo sapiens, UniProt O43251-10, residues 100-194)
# Notes: natural RNA segment, single round, ends assumed
# Residues (chain): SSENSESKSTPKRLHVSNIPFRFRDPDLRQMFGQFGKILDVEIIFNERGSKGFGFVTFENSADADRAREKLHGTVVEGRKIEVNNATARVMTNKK
Oligonucleotide,RBNS enrichment (R)
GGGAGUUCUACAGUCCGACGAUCGUGAAGAAAUGGAUAUGUUAUAUAUUUCUGCUACCUGGAUUUUCCUGGGUAAUUUGAUGGAAUAUUUUACGUUUGAUUAAAUCAAAACAGUAAACACUCUCUUAGAUACUUGGAAUUCUCGGGUGCCAA,0.311
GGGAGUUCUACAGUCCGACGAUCCACUGUGGCCCUAGAAAACGAAGAUGAAGCCUCCACUGACCACUGUGUCCUCUCUGACUUGGCCAGCCUGAUGGUCCUUCCUUCUACUCUGUGUAGUCAUUCCUAAGCCCUGGAAUUCUCGGGUGCCAA,0.488
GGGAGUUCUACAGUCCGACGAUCGCUAUUGAGAGUUGCAGUGUUUUACUUUUUAAUACAGUGACUGCACUUGGGACAGACUAUUUGUAGUGUCUAUAGGACAUGAAGCGUGCAGCUUGGAGAGCAAAGGCACUUGGAAUUCUCGGGUGCCAA,0.39
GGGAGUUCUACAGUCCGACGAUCGUACAGGCUAGAAAAGAGUUCUCAACCAGGCUUAACUGGAGUGGUCUCAGAAAGCCAUCAACAGGCUCUGGUAAAACAUAGGUAAAAAUGGGUGAUUAUGAUUGACACUCUGGAAUUCUCGGGUGCCAA,0.626
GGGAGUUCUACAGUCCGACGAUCUCUCUAUGACCAGGCACUUAAACAUAAUUUAAAAGUCCUUGUAGCUUCAGAACCGGAUAAGUUCCAGUUGCAUAUCUCUAUAUCUCCUGGUUUCCCUCUUGGUUUUCCCCUGGAAUUCUCGGGUGCCAA,0.27
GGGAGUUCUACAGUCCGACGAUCCAGGUAAAAAAAUGAGUACACUGAACAAUAUGUAAUUCAUACGUAUUUUGCAACUUACCUGUGAGCCUGCAAUUAUUUGAGGUUUUUGAGCAAUUGGUGUUUCUAUGUGUUGGAAUUCUCGGGUGCCAA,0.546
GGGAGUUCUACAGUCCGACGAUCUGGUAGUUUUUUUGUUCUUUUAAACUGAGCUCAGCGAGUUUGGCCCACACUGGUGGGCUGCUGGGUAUUCAGCCACCACACUCUUCACUGCUUGGACCUAGUUGGUGUUUUGGAAUUCUCGGGUGCCAA,0.967
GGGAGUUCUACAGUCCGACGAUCAAUGGCCACCCUGUGUUGUGGGAACUGAGAAGGGCAAUAUAAACCUGAGAGGUUCCUUUGUGUGGUGGGGCCUGAAGAAGAAAGCCCCACGGCUGGACAGCUGUUCUCUCUGGAAUUCUCGGGUGCCAA,0.626
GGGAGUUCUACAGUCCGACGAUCUAAGGGGUAGAUGACGUGAAAUUUUGCAAGUCUUAAUUACAGCUGCAGAUGCAUGGGAUUCUGGAUUUUUUUGUUGCUUUUUAGUUUAAUGGGACUUUAAAAGUAAUUGAUGGAAUUCUCGGGUGCCAA,2.14
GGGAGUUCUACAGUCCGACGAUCAUGACGAUGAUGAUAGCAGUGACUAGGACACAUUUGGGAGUAUUUAAUCAGGUGUGGCUAUCUGAGAAAUCAACUUUGGGGGAAAUGUAAGAUUCUGAGCUCUCUCUCUGUGGAAUUCUCGGGUGCCAA,1.38
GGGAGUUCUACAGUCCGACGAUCUAAGGGGAGUAUCUCUCACGACCCUAAAUUCUGCCUCCAGCUGUGCCCAGUGAAAGACCUCAAGUCUGCCUCCAGCCAUGCCCAAGGCAGGAACCCUGGAAGAGAAGCGCUGGAAUUCUCGGGUGCCAA,0.248
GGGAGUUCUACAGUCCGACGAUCCAUUAUAGCUUUUCAUGUAGAUCUGAGGCCCAGGUUACUGUAAUUCUUUUUUUUCCAAUUUCCUUGCUCCCAGGAUCCCCAUCUUGUAUAAAGUUUCUAAGGUGCUCCUCUGGAAUUCUCGGGUGCCAA,0.443

# Block 4 — method: protein-binding microarray; form: double-stranded DNA, one strand shown; sample: in vitro; tested at: 2200 nM top; notes: 60-bp whole probe; together with: salmon DNA 0.4 mg/ml; reference: random background probes; direction: higher = stronger binding; constant ends, left off below: GCCTAGCAC … GTCTTGATTCGCTTGACGCTGCTG
# Target: Interferon regulatory factor 7, full length, phosphomimetic (IRF7, Homo sapiens, UniProt Q92985, residues 1-503, S471D/S472D/S475D/S476D/S477D/S483D/S484D/S487D)
# UniProt Q92985, sequence (whole entry, unmodified, looked up): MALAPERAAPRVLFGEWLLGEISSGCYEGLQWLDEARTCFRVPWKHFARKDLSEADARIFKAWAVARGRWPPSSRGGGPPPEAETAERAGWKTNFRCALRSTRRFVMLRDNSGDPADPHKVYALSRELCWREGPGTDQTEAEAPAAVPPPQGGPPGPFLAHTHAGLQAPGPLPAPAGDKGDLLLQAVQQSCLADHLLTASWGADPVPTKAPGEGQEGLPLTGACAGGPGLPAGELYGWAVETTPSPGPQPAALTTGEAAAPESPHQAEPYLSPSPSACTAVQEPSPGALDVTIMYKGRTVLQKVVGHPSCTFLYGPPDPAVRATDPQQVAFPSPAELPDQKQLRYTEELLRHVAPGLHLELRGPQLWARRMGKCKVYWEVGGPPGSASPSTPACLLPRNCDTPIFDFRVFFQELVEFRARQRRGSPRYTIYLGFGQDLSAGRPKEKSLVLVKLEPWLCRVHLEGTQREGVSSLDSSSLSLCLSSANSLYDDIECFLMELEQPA
Oligonucleotide,fitted relative affinity [z-score]
GACGGTTACGACTATCGGGACGTGCTA,-0.283
ATAGGACTGCTTCTCCTTTAGTGCTAG,0.899
GACGGACGGGGTATCGGGACGTGCTAG,-0.671
GACGGTATCGACTATCGGGGCGTGCTA,-0.306
CACGGACTGCTACTGCTGACGTGCTAG,-0.223
GACGATTTCGGGTACCGAGACGTGCTA,2.45
TTAGGTTTCCTTTCCCTTGAGTGCTAG,4.02
GCCAAAAGTGTAAATGTAAGGTGCTAG,-0.198
TTAGGTTTCGACTTTCGGTTAGTGCTA,10.9
TTAGGTCTCGGGTATCGGTTAGTGCTA,0.582
CTAGAACTGAGTATCGATTAGTGCTAG,-0.209
GACGATATCAGTCTCGCGACGTGCTAG,0.311
GACGGTCTAGGTCTCGGGACGTGCTAG,-0.576
TTAAGTATCGACACTGGGTTAGTGCTA,-0.106
GACGGTTTCGGGTATCGGAACGTGCTA,6.08
TTAGGTATCCTGCTGCTTTAGTGCTAG,0.503
TTAGGGCTGGACACTGGGTTAGTGCTA,-1.31
GACGGTTACCTACTGCTGACGTGCTAG,0.459
GACGGTATCGGTATGGGGACGTGCTAG,0.205
CAAACACTAGTTTTTACTTTGTGCTAG,0.788
TTAGACTTCGGGACTGGATTAGTGCTA,-0.571
CCCCCAATCTCTCTTCACATGTGCTAG,0.186
GACGGTAACCTTCTCCTGACGTGCTAG,0.607
AGGGTCCCGCGATTCGACACGTGCTAG,-0.14
GACGGACTGGACACTCGGGACGTGCTA,-0.587
